Experimental data of several laboratories.
Parts stem from different laboratories: compare values within a part only. “And” joins repeats or separate records; there may be more than shown. ± gives the spread as reported.
UniProt P51813, sequence (whole entry, looked up): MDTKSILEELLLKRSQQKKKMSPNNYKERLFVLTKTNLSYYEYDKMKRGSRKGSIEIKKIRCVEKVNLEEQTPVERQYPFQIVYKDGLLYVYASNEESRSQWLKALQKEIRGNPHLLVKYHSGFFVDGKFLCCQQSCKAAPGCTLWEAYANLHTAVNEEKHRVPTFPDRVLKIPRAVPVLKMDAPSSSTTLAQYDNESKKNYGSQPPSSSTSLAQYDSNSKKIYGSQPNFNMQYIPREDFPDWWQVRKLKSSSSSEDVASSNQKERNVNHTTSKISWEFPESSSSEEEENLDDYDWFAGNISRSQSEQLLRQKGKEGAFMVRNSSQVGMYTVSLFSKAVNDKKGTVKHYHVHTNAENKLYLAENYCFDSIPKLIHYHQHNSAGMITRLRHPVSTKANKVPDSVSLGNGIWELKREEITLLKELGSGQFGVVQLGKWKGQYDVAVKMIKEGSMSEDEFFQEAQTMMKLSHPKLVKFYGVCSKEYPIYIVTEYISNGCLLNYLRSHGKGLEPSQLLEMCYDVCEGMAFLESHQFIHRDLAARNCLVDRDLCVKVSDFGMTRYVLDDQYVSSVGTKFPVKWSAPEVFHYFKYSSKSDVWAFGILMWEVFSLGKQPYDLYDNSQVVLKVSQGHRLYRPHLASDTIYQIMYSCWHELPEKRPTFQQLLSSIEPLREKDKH

Block 1 — action: degrader; technique: In-Cell ELISA; measurement: DC50
SMILES: Cc1ncsc1-c1ccc(C(CO)NC(=O)C2CC(O)CN2C(=O)C(C(C)C)n2cc(-c3ccc(COc4c(-c5c(C)c(F)cc6[nH]ncc56)c(C5CC5)cc5c(N6CC7CC6CN7)nc(OC6CCOCC6)nc45)cc3)nn2)cc1 (stereo not drawn)
Target: GTPase KRas (KRAS, Homo sapiens, UniProt P01116, G12D)
AsPC-1 (KRAS G12D); 24 h: 57.4 nM and 24.9 nM and 38.8 nM
PK-59, control siRNA; 1440 min: 11.8 nM
AsPC-1 (KRAS G12D); 24 h, geometric mean: 38.1 nM

Block 2 — measurement: root length
Structure (SMILES): O=C(O)C1(O)Oc2cc(F)ccc2N(Cc2ccccc2)C1=O (stereo not drawn)
Arabidopsis thaliana; Col-0, seedlings; 50 µg/mL, 1/2 MS medium: 0.01 cm
Arabidopsis thaliana; Col-0, seedlings; 50 µg/mL, added: BCAA: 1.01 cm
Arabidopsis thaliana Col-0 seedlings; 50 µg/mL, added: branched-chain amino acids: 1.04 cm and 0.98 cm and 1.03 cm and 1 cm and 1.02 cm and 0.99 cm and 1.01 cm
Arabidopsis thaliana; Col-0; 25 µg/mL, seed germination: 0.139 cm
Arabidopsis thaliana; Col-0; 100 µg/mL, seed germination: 0.01 cm
Arabidopsis thaliana; Col-0; 3.125 µg/mL, seed germination: 0.7 cm

Block 3 — effect on: thermal unfolding; technique: differential scanning fluorimetry; concentration: 5.5 µM; reading: higher = more unfolded; measurement: SYPRO Orange fluorescence
Compound: C[C@@H]1CN(c2ccc(-c3cc(C(=O)NCCOCCOCCOCCOCCNC(=O)Cn4cc(-c5[nH]cc(C(=O)N[C@@H](CC(N)=O)c6ccc(F)c(Cl)c6)c5-c5ccc(Cl)cc5F)cn4)ccc3F)cc2NC(=O)c2c[nH]c(=O)cc2C(F)(F)F)C[C@H](C)N1C
DCAF1: DDB1- and CUL4-associated factor 1 (DCAF1, Homo sapiens, UniProt Q9Y4B6)
UniProt Q9Y4B6, sequence (whole entry, looked up): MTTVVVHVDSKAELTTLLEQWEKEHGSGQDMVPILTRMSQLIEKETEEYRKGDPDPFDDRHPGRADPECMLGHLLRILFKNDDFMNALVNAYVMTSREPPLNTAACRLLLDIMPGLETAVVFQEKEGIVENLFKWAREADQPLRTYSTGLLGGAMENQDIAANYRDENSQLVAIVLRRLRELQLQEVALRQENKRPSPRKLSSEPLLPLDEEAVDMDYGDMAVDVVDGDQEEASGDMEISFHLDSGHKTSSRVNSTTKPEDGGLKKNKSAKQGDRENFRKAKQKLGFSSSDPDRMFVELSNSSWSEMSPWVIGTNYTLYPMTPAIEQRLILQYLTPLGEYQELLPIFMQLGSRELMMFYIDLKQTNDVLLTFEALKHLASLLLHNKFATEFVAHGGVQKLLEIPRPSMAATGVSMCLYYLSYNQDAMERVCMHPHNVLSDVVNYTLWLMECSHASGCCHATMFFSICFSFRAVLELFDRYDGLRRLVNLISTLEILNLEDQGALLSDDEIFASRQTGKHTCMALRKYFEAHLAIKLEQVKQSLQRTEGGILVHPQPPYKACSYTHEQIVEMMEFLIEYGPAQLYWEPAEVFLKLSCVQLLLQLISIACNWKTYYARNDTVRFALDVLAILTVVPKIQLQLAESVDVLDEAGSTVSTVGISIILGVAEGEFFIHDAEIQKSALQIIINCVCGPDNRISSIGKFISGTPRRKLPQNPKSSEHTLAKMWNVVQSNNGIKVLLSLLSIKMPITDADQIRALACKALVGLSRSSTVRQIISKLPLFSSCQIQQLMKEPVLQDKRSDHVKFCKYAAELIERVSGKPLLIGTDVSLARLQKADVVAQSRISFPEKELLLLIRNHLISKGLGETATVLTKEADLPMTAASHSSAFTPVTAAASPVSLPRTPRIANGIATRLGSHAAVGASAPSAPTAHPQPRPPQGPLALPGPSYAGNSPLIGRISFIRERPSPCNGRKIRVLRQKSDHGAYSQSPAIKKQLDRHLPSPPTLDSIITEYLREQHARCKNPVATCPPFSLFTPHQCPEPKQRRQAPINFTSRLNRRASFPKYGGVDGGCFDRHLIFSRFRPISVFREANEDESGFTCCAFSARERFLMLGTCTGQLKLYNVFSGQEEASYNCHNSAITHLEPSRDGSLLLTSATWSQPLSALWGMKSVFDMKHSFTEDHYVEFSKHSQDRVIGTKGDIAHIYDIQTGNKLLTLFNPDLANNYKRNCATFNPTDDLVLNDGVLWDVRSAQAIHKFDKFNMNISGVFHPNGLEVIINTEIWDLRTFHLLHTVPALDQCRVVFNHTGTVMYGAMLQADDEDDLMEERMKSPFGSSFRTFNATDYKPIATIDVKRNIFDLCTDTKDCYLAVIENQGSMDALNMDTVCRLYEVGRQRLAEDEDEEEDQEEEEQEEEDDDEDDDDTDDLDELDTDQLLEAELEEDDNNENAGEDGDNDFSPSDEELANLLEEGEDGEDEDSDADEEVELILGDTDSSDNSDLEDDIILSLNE
WDR5: WD repeat-containing protein 5 (WDR5, Homo sapiens, UniProt P61964)
DCAF1; 74.61 °C: 49700 a.u.
DCAF1; 83.21 °C: 41500 a.u.
WDR5; 40.4 °C: 14200 a.u.
WDR5; 93.01 °C: 40300 a.u.
WDR5; 50.6 °C: 14400 a.u.
DCAF1; 69.01 °C: 55300 a.u.
DCAF1; 65.41 °C: 56300 a.u.
DCAF1; 30 °C: 8270 a.u.
WDR5; 60.01 °C: 10400 a.u.
DCAF1; 43.2 °C: 11500 a.u.
WDR5; 41.8 °C: 14200 a.u.

Block 4 — effect on: kinase activity; action: inhibitor; technique: ADP-Glo; concentration: 0.0027 µM; measurement: inhibition
Target: Cyclin-dependent kinase 12, with cyclin K (CDK12, Homo sapiens, UniProt Q9NYV4)
UniProt Q9NYV4, sequence (whole entry, looked up): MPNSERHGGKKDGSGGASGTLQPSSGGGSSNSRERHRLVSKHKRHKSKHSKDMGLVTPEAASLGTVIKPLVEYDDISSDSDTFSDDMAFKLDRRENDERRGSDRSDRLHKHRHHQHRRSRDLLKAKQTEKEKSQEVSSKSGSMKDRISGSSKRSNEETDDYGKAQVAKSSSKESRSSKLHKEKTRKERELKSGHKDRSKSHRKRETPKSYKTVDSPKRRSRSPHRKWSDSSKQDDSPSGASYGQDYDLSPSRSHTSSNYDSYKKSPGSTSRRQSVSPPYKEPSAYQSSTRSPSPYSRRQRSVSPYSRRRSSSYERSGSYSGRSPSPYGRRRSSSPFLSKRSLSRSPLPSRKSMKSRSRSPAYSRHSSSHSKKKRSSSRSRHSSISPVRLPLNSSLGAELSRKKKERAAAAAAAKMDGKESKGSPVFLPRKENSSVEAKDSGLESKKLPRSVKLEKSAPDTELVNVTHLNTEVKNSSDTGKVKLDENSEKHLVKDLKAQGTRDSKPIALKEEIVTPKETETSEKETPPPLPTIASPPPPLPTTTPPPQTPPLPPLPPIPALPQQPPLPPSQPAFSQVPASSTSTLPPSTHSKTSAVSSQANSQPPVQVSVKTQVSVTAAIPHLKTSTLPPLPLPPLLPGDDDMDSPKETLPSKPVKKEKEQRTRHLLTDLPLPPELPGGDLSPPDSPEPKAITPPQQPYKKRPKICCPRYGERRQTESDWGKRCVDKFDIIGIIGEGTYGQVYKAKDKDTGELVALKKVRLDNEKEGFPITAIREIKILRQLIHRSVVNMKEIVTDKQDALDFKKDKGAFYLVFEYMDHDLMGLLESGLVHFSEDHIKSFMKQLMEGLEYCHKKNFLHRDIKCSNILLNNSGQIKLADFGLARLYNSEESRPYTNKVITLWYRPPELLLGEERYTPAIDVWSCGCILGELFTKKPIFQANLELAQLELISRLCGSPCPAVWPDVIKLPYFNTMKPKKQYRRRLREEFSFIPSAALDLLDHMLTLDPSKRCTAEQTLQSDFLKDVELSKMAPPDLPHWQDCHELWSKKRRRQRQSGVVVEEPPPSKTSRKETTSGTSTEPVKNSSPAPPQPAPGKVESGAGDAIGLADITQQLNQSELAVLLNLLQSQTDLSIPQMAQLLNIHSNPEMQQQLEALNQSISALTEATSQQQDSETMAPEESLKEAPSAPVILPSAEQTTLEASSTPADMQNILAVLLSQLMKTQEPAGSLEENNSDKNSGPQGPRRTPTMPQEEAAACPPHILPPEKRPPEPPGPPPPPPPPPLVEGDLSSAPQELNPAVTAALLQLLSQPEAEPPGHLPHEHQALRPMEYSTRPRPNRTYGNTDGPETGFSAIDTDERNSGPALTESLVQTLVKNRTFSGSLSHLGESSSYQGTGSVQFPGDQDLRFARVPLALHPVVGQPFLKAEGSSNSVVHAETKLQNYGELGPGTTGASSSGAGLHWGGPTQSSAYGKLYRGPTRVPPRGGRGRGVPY
CC(=O)N1CCN(c2nc(NCc3nc4cc(Cl)c(Cl)cc4[nH]3)c3ncn(C)c3n2)CC1: -5.6%
Cn1cc(-n2cnc3c(NCc4nc5cc(Cl)c(Cl)cc5[nH]4)nc(N4CCNCC4)nc32)cn1: -5.1%
CCn1cnc2c(NCc3nc4cc(Cl)c(Cl)cc4[nH]3)nc(N3CCn4ncnc4C3)nc21: 15.5%
CCn1cnc2c(NCc3nc4cc(Cl)c(Cl)cc4[nH]3)nc(N3CCN(C(=O)[C@H](C)NC(C)=O)CC3)nc21: -16.1%
CCn1cnc2c(NCc3nc4cc(Cl)c(Cl)cc4[nH]3)nc(N3CCN(C(C)=O)CC3)nc21: 6.3%
CCn1cnc2c(NCc3nc4cc(Cl)c(Cl)cc4[nH]3)nc(N3CCN(C(=O)c4ccccn4)CC3)nc21: -0.2%
CCn1cnc2c(NCc3nc4cc(Cl)c(Cl)cc4[nH]3)nc(N3CCN(C(=O)CNC(C)=O)CC3)nc21: -1.8%
CCn1cnc2c(NCc3nc4cc(Cl)c(Cl)cc4[nH]3)nc(N3CCN(S(C)(=O)=O)CC3)nc21: -5.7%
CCn1cnc2c(NCc3nc4cc(Cl)c(Cl)cc4[nH]3)nc(N3CCN(C(=O)c4ccccc4)CC3)nc21: -7.2%
CC(=O)N1CCN(c2nc(NCc3nc4cc(Cl)c(Cl)cc4[nH]3)c3ncn(C(C)C)c3n2)CC1: -4%

Block 5 — cell line: U-87 MG; concentration: concentration not given; baseline: DMSO; measurement: log2 fold change
Compound: CCN1/C(=C/C=C2\CCCC(/C=C/C3=[N+](CC)c4ccccc4C3(C)C)=C2NCCCCCCCCN2CCC(Nc3nc4ccccc4n3Cc3ccc(F)cc3)CC2)C(C)(C)c2ccccc21
measured: CIITA mRNA: -2.01
measured: KY: -2.22
measured: SGCD mRNA: -3.2
measured: BPIFC mRNA: 6.4
measured: XBP1 mRNA: 1.11
measured: PCDHGA10 mRNA: -1.4
measured: RALA mRNA: 1.16
measured: CASP6 mRNA: -0.812
measured: LRRC45 mRNA: -1.6
measured: PLXDC1 mRNA: -1.53
measured: LMO7 mRNA: -1.63
measured: SCARA3 mRNA: -2
measured: ZMYM5 mRNA: 0.803
measured: TUBB mRNA: -1.81
measured: SUV39H1 mRNA: -2.14
measured: SH3BGRL2 mRNA: 1.46

Block 6 — action: inhibitor; technique: FLIPR membrane potential; cell line: CHO-BC; added: 1.5 mM L-leucine; measurement: IC50
Target: Sodium-dependent neutral amino acid transporter B(0)AT1 (SLC6A19, Homo sapiens, UniProt Q695T7)
UniProt Q695T7, sequence (whole entry, looked up): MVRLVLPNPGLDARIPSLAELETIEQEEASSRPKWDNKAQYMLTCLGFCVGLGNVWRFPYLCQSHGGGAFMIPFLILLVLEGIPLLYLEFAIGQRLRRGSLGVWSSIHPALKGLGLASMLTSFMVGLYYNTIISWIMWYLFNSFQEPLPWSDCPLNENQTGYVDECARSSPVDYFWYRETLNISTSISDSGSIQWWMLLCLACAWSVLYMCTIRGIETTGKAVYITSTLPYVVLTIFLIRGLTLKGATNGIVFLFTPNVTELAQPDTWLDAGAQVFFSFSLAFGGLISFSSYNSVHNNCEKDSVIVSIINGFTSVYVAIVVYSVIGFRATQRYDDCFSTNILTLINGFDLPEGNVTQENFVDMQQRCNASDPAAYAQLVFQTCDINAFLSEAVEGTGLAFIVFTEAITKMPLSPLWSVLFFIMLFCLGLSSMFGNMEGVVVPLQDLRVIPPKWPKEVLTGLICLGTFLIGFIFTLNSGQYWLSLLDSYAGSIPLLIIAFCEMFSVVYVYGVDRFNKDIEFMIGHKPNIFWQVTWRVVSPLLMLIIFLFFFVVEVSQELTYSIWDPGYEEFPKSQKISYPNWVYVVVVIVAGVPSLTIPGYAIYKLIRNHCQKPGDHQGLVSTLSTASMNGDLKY
CCNC(=O)COc1ccc(I)c(C)c1: 46 ± 6 nM
Cc1cc(OCC(=O)NC(C)C)ccc1Br: 440 ± 60 nM
Cc1cc(NCC(=O)NC(C)C)cc(C)c1Br: 360 ± 20 nM
Cc1cc(NCC(=O)NC(C)C)ccc1Br: 90 ± 10 nM
CCCNC(=O)CNc1ccc(I)c(C)c1: 34 ± 5 nM
CCCNC(=O)COc1ccc(I)c(C)c1: 43 ± 8 nM
CCNC(=O)CNc1ccc(Br)c(C)c1: 31 ± 2 nM
Cc1cc(NCC(=O)NC(C)C)cc(C)c1Cl: 300 ± 30 nM

Block 7 — cell line: PANC-1; technique: DNA microarray; baseline: control; measurement: fold change
SMILES: COCC1CC2C(CCC3C(O)CCC32)c2ccc(O)cc21 (stereo not drawn)
measured: CCL1 mRNA (probe A_23_P49759); 25 µM: 5.07
measured: ADAMTS8 mRNA; 100 µM: 32.6
measured: ACTB mRNA; 100 µM: 0.615
measured: ADAMTS8 mRNA; 25 µM: 24.9
measured: ADAMTS14 mRNA; 25 µM: 5.75
measured: UBB mRNA; 100 µM: 0.607
measured: ACTB mRNA; 25 µM: 0.608
measured: ADAMTS14 mRNA; 100 µM: 6.86
measured: UBB mRNA; 25 µM: 0.604
measured: CCL22 mRNA; 25 µM: 25.2
measured: CCL22 mRNA; 100 µM: 12
measured: CCL1 mRNA (probe A_23_P49759); 100 µM: 7.09

Block 8 — effect on: enzyme activity; action: inhibitor; technique: fluorescence; measurement: inhibition
SMILES: Cc1nc2c([nH]1)c(=O)[nH]c(=S)n2Cc1cccc(OC/C(=C/F)CN)c1
MPO: Myeloperoxidase (MPO, Homo sapiens, UniProt P05164)
UniProt P05164, sequence (whole entry, looked up): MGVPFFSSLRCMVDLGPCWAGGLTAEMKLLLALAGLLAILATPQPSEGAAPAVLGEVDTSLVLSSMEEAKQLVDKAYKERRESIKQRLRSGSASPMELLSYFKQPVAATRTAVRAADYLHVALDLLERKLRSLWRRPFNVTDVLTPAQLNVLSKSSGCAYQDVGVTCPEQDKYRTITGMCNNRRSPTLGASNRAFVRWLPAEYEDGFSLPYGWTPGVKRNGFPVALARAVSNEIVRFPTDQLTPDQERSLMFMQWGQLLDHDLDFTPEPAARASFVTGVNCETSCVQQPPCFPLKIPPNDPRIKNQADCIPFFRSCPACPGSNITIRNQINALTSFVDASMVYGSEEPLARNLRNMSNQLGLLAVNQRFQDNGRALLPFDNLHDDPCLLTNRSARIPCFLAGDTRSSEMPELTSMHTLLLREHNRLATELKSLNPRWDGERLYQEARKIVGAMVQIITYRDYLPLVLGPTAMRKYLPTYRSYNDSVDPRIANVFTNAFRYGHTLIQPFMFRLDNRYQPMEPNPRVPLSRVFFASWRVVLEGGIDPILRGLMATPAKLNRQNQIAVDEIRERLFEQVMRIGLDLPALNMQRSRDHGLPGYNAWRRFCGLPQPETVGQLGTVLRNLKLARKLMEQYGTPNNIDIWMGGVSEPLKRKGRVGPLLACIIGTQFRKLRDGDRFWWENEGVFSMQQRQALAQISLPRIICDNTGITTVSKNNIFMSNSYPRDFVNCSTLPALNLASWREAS
AOC3: Amine oxidase [copper-containing] 3 (AOC3, Homo sapiens, UniProt Q16853)
MPO; 1.667 µM: 76.6% and 69.1%
MPO; 1.5 nM: -8.21%
AOC3; 10 µM: 101% and 100%
MPO; 13.7 nM: -0.725%
MPO; 500 pM: -13.2%
AOC3; 0.1235 µM: 93.9% and 85.2% and 84.8% and 94.5%
AOC3; 13.7 nM: 31.6% and 43.1% and 30.1% and 37.4%
MPO; 30 µM: 99.2%

Block 9 — concentration: 1 µM; measurement: remaining binding
Compound: CC[C@@]1(c2ccccc2)C2=C(CC(C)(C)CC2=O)Nc2n[nH]cc21
Serine/threonine-protein kinase PLK1 (PLK1, Homo sapiens, UniProt P53350); binding, competition with immobilised ligand: 100%
Phosphatidylinositol 4-kinase beta (PI4KB, Homo sapiens, UniProt Q9UBF8); binding, competition with immobilised ligand: 94%
Tyrosine-protein kinase Mer (MERTK, Homo sapiens, UniProt Q12866); kinase binding, KINOMEscan; baseline: DMSO control: 100%
Myosin light chain kinase 2, skeletal/cardiac muscle (MYLK2, Homo sapiens, UniProt Q9H1R3); binding, competition with immobilised ligand: 100%
Cyclin-dependent kinase 13 (CDK13, Homo sapiens, UniProt Q14004); binding, competition with immobilised ligand: 77%
Cytoplasmic tyrosine-protein kinase BMX (BMX, Homo sapiens, UniProt P51813); binding, competition with immobilised ligand: 100%
Eukaryotic translation initiation factor 2-alpha kinase 1 (EIF2AK1, Homo sapiens, UniProt Q9BQI3); binding, competition with immobilised ligand: 100%
Ribosomal protein S6 kinase alpha-1, N-terminal kinase domain (RPS6KA1, Homo sapiens, UniProt Q15418); kinase binding, KINOMEscan; baseline: DMSO control: 96%
Serine/threonine-protein kinase SBK1 (SBK1, Homo sapiens, UniProt Q52WX2); binding, competition with immobilised ligand: 100%
Mast/stem cell growth factor receptor Kit (KIT, Homo sapiens, UniProt P10721, A829P); kinase binding, KINOMEscan; baseline: DMSO control: 100%
Dual specificity mitogen-activated protein kinase kinase 3 (MAP2K3, Homo sapiens, UniProt P46734); kinase binding, KINOMEscan; baseline: DMSO control: 88%
Interleukin-1 receptor-associated kinase 1 (IRAK1, Homo sapiens, UniProt P51617); kinase binding, KINOMEscan; baseline: DMSO control: 97%
Cyclin-dependent kinase 7 (CDK7, Homo sapiens, UniProt P50613); binding, competition with immobilised ligand: 100%
Ephrin type-A receptor 3 (EPHA3, Homo sapiens, UniProt P29320); kinase binding, KINOMEscan; baseline: DMSO control: 60%
Ephrin type-A receptor 7 (EPHA7, Homo sapiens, UniProt Q15375); kinase binding, KINOMEscan; baseline: DMSO control: 100%

Other studies, line by line
Cc1ccc(O)c(C)c1-c1cnc2[nH]c(-c3cnc(N4CCC5(CC4)CC(N4CCN(c6ccc(NC7CCC(=O)NC7=O)cc6F)CC4)CO5)nc3)cc2c1C#N (stereo not drawn) — AUC(0-t) (female CD-1 mouse, plasma; oral, 20 mg/kg): 3090 ng·h/mL
Cc1ccc(O)c(C)c1-c1cnc2[nH]c(-c3cnc(N4CCC(CN5CCN(c6ccc7c(c6)C(=O)N(C6CCC(=O)NC6=O)C7=O)CC5)CC4)nc3)cc2c1C#N (stereo not drawn) — phospho-CDK1 (Thr14) level (HCC1569; CDK1 Thr14 phosphorylation, in-cell western; 1000.00 nM; lower = stronger inhibition): 110 a.u.
Cc1ccc(O)c(C)c1-c1cnc2[nH]c(-c3cnc(N4CCC(CN5CCN(c6ccc7c(c6F)CN(C6CCC(=O)NC6=O)C7=O)CC5)CC4)nc3)cc2c1C#N (stereo not drawn) — AUC(0-t) (female CD-1 mouse, plasma; oral, 20 mg/kg): 5360 ng·h/mL
Cc1ccc(O)c(C)c1-c1cnc2[nH]c(-c3cnc(N)nc3)cc2c1C#N — number of kinases bound (KINOMEscan; 403 non-mutant kinase panel; 1000 nM, percent of control below 1): 1
